Measurements pooled from the literature.
± gives the spread as reported.
HLA class I histocompatibility antigen, A alpha chain allele A*02:01: HLA class I histocompatibility antigen, A alpha chain, allele A*02:01 (Homo sapiens, UniProt P04439)
B1: CFH 1108-1231 R1215Q (Homo sapiens, UniProt P08603); sequence looked up; chain KCGPPPPIDNGDITSFPLSVYAPASSVEYQCQNLYQLEGNKRITCRNGQWSEPPKCLHPCVISREIMENYNIALRWTAKQKLYSRTGESVEFVCKRGYRLSSRSHTLQTTCWDGKLEYPTCAKR
B2: SGIP1 69-156 S95C (mouse, UniProt Q8VD37); Alexa Fluor 488 label; chain AEIDWERYNSPELDEEGYSIRPEEPGCTKGKHFYSSSESEEEEESHKKFNIKIKPLQSKDVLKNAATVDELKASIGNIALSPSPVRKS
B3: PUX6 269-435 (Arabidopsis thaliana, UniProt F4IXN6); chain VTYTVTIWRNGFTVDDDPFKSLDDPENAAFLEYMPEDNKFGVPTTTRSTSCSSQTHQELQTLAGSESTSTEPPLTTTQPPSMSSLVVDPAAPTTSIQLILADSTRIVTQFNTHHTIRDIRCFIDTSRPDGSKDYQLLIMGSPPTPLSDFDQTIEKAGIANSVLVQKF
B4: Kcnh1 7-136 (Mus musculus, UniProt Q60603); sequence looked up; chain RRGLVAPQNTFLENIVRRSNDTNFVLGNAQIVDWPIVYSNDGFCKLSGYHRAEVMQKSSACSFMYGELTDKDTVEKVRQTFENYEMNSFEILMYKKNRTPVWFFVKIAPIRNEQDKVVLFLCTFSDITAF
B5: NFE2L2 155-220 (Homo sapiens, UniProt Q16236); fluorescein label; chain GVFIATNQAQSPETSVAQVAPVDLDGMQQDIEQVWEELLSIPELQCLNIENDKLVETTMVPSPEAKL
B6: Cacna1c 1647-1777 (Mus musculus, UniProt Q01815); sequence looked up; chain NALSLQAGLRTLHDIGPEIRRAISGDLTAEEELDKAMKEAVSAASEDDIFRRAGGLFGNHVTYYQSDSRGNFPQTFATQRPLHINKTGNNQADTESPSHEKLVDSTFTPSSYSSTGSNANINNANNTALGR
UniProt Q92785, sequence (whole entry, looked up): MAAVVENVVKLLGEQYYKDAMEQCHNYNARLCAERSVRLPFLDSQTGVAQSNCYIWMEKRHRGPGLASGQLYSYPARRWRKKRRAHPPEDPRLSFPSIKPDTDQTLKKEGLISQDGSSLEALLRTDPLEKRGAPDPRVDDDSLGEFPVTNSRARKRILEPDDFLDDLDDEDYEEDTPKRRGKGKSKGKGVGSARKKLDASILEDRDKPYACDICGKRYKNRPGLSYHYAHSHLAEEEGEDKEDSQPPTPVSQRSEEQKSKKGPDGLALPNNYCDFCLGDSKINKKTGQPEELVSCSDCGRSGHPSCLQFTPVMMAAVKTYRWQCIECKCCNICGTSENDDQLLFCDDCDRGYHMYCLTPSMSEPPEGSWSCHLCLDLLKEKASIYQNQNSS
UniProt P01024, sequence (whole entry, looked up): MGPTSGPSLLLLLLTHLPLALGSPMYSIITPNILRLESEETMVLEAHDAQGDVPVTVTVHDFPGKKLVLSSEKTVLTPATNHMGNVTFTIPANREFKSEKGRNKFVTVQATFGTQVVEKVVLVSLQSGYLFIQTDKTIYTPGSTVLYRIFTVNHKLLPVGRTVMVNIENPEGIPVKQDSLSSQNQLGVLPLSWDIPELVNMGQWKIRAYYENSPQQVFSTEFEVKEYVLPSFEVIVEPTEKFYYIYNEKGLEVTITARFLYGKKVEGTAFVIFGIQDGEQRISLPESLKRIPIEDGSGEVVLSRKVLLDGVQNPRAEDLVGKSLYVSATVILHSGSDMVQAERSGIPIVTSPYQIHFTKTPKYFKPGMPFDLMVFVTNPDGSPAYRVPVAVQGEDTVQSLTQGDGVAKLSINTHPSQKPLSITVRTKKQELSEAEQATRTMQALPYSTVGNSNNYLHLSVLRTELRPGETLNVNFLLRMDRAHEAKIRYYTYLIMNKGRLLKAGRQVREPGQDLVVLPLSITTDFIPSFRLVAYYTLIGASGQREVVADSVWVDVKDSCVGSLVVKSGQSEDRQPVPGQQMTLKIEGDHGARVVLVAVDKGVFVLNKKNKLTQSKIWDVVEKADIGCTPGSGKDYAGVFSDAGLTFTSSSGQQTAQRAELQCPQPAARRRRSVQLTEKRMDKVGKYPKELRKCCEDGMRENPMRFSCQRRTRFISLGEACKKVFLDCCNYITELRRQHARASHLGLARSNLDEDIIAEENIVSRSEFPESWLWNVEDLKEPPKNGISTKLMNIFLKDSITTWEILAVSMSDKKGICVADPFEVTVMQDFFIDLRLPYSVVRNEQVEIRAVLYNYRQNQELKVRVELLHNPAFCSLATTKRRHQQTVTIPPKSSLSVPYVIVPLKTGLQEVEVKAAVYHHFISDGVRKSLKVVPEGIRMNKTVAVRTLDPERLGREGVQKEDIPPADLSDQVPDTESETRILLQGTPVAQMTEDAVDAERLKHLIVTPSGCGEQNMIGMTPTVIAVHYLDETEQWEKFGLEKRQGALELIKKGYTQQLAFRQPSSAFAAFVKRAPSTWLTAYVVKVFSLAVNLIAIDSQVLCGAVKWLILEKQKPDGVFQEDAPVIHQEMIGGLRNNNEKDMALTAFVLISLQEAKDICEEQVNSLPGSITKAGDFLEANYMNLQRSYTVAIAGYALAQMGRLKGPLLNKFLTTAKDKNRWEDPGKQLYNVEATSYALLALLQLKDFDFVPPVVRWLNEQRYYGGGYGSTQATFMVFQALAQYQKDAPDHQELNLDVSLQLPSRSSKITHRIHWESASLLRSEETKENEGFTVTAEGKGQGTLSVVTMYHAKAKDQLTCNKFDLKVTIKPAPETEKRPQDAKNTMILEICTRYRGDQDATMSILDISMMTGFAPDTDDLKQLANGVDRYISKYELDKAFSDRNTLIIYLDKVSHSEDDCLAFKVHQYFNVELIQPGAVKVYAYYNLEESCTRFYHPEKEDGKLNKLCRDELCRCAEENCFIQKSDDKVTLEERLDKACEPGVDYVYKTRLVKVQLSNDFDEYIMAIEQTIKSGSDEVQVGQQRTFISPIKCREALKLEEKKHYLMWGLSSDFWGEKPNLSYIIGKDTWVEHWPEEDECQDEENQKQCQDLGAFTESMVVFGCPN
UniProt Q09472, sequence (whole entry, looked up): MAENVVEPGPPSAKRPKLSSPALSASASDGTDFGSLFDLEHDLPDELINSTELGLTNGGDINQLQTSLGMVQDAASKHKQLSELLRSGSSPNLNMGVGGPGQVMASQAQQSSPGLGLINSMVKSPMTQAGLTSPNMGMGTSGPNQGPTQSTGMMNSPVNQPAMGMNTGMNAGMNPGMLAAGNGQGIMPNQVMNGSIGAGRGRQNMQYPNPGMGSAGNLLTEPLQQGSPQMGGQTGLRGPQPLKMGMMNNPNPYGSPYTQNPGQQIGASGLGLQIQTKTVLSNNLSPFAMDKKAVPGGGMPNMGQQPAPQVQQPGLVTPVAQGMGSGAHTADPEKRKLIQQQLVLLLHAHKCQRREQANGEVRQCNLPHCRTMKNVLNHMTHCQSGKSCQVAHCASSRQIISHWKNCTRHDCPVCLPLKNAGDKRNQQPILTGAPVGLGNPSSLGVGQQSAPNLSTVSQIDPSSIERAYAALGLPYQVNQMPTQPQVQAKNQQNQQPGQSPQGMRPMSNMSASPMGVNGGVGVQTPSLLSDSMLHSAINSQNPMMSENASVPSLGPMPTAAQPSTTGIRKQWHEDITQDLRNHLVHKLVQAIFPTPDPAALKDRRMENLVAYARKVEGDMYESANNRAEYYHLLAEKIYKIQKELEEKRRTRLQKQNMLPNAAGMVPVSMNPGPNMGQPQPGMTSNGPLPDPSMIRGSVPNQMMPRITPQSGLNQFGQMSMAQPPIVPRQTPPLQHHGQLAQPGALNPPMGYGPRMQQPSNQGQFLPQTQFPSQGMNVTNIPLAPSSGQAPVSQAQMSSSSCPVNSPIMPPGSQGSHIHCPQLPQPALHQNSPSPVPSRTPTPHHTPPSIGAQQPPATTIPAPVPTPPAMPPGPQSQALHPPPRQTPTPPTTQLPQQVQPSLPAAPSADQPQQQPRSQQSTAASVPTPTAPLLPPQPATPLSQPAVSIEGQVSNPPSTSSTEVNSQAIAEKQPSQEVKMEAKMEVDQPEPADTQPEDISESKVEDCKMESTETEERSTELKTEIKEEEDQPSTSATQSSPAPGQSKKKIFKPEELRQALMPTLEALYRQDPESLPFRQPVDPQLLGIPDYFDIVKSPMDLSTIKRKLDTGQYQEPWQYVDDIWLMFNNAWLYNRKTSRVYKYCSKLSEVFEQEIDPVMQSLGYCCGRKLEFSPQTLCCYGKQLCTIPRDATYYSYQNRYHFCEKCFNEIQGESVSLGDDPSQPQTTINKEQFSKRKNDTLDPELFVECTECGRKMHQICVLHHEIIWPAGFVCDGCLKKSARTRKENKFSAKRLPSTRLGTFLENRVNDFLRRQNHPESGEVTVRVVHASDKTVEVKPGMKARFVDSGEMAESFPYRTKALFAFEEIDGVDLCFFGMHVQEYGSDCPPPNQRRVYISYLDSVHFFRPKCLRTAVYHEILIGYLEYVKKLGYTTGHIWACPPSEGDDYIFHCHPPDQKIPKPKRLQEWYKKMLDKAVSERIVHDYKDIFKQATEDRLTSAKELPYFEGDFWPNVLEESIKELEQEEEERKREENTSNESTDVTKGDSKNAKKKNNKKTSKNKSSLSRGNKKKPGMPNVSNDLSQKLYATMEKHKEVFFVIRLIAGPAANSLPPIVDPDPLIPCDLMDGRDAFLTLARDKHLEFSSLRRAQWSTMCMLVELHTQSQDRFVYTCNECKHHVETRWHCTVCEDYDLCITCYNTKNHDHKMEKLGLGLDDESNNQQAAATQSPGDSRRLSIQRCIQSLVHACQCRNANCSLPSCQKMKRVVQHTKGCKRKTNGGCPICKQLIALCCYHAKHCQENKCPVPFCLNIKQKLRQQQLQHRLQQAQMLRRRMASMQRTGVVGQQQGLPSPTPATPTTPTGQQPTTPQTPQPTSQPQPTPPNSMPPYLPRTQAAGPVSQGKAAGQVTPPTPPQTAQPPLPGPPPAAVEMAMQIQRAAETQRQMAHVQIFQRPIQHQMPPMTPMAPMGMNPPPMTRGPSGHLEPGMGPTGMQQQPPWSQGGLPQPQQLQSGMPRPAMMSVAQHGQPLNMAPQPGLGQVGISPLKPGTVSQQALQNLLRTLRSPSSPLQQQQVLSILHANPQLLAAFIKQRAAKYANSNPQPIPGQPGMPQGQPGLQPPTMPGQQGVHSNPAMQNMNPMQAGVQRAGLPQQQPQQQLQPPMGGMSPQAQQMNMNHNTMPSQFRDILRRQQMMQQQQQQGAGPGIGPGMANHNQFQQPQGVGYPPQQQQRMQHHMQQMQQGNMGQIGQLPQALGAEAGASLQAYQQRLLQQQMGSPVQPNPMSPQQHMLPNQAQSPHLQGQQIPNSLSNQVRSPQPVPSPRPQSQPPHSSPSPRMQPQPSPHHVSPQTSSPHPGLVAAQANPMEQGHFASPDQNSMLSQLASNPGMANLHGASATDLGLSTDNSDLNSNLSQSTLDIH

Molecule | target or system | test | system | conditions | scale | measurement | value
EEQWAREIGAQLRRMADDLNAQYER (BBC3 BH3 peptide 68-92 (Homo sapiens); N-acetyl, C-terminal amide) | BCL2L1 fragment (Homo sapiens) | ITC | peptide |  |  | Kd | 0.003 µM
MNQRPILTII | HLA class I histocompatibility antigen, A alpha chain allele A*02:01 | MHC class I stabilisation, flow cytometry | peptide, TAP2-knockout TISI monoallelic cells | 25 µM, 18 h, 37 °C, together with: β2-microglobulin 3 µg/mL | baseline: DMSO | HLA class I surface increase | 2.3%
B1 (CFH 1108-1231 R1215Q) | C3 996-1303 (Homo sapiens, UniProt P01024) | SPR |  |  |  | Kd | 13.1 ± 0.6 µM
GSGAGHETIV | human MAGI1-3/6 PDZ construct (MBP fusion) | automated holdup | peptide, crude extract | concentration not given, uncorrected, unit not given | baseline: biotin control resin, higher = stronger binding | binding intensity | 0.296
B2 (SGIP1 69-156 S95C) | AP2A2/AP2B1/AP2M1/AP2S1 core, lacking appendage domains (Mus musculus) | MST |  | with heparin |  | Kd | 0.057 µM
KIGGFGLATV | HLA class I histocompatibility antigen, A alpha chain allele A*02:01 | MHC class I stabilisation, flow cytometry | peptide, TAP2-knockout TISI monoallelic cells | 25 µM, 18 h, 37 °C, together with: β2-microglobulin 3 µg/mL | baseline: DMSO | HLA class I surface increase | 42.6%
Histone H3.1 fragment (Homo sapiens) | DPF2 270-391 (Homo sapiens, UniProt Q92785) | ITC |  |  |  | Kd | > 100 µM
B3 (PUX6 269-435) | CDC48A 1-463 (Arabidopsis thaliana, UniProt P54609) | ITC |  | 10 °C |  | Kd | 9.5 ± 0.9 µM
B4 (Kcnh1 7-136) | Kcnh1 552-708 (Mus musculus, UniProt Q60603) | SPR |  | 25 °C, two-state model, together with: chlorpromazine 30 µM |  | Kd | 1.6 µM
GGWVEKETYY | human MAGI1-3/6 PDZ construct (MBP fusion) | automated holdup | peptide, crude extract | concentration not given, corrected by standard peak, unit not given | baseline: biotin control resin, higher = stronger binding | binding intensity | -0.0842
B5 (NFE2L2 155-220) | EP300 TAZ2 1723-1812 x (Homo sapiens, UniProt Q09472) | fluorescence titration |  |  |  | Kd | 31.2 ± 16 µM
SCN2A fragment Y1919A (Homo sapiens) (sequence not shown) | CALM1 (Homo sapiens, UniProt P0DP23) | fluorescence titration |  | together with: CaCl2 |  | Kd | 0.173 µM
KLLITIHDRKEFAKFEKEKARAKWDTANNPLYKEATSTFTNITYRGT (ITGB3 742-788 E732K/R734K (Homo sapiens, UniProt P05106); sequence looked up) | Tln1 309-405 (Mus musculus, UniProt P26039) | NMR titration |  |  |  | Kd | 748 µM
SPTBN2 fragment (Homo sapiens) (sequence not shown) | ACTA1 F-actin (Oryctolagus cuniculus, UniProt P68135) | co-sedimentation |  |  |  | Kd | 55.2 µM
B6 (Cacna1c 1647-1777) | Jph2 1-440 S165P (Mus musculus, UniProt Q9ET78) | ITC |  |  |  | Kd | 7.27 µM

Excerpt of the above:
Molecule | target or system | test | system | conditions | scale | measurement | value
B6 (Cacna1c 1647-1777) | Jph2 1-440 S165P (Mus musculus, UniProt Q9ET78) | ITC |  |  |  | Kd | 7.27 µM
GGWVEKETYY | human MAGI1-3/6 PDZ construct (MBP fusion) | automated holdup | peptide, crude extract | concentration not given, corrected by standard peak, unit not given | baseline: biotin control resin, higher = stronger binding | binding intensity | -0.0842
